Assay results pooled from the literature.
Several values in a cell are separate wells, animals, samples, runs or records.
Target: Tyrosine-protein kinase SYK (SYK, Homo sapiens, UniProt P43405)

| Compound | assay | setting | how to read | quantity | result |
| --- | --- | --- | --- | --- | --- |
| Cc1ccc(C)c(-c2ccc3nc(NC(=O)C4CCCCC4)nn3c2)c1 | enzyme activity, Dundee kinase panel | 10 µM | – | remaining activity | 87% |
| O=C=[N][Ru-4]123([n]4c5ccc(O)cc5c5c6c(c7cc(F)c[n+]1c7c54)C(=O)NC6=O)[S+]1CC[S+]2CC[S+]3CC1 (centres unmarked) | enzyme activity | 100 nM, human enzyme, added: 10 µM ATP | relative to: untreated | remaining activity | 114% |
| Cc1cccc(-c2ccc3nc(NC(=O)C4CCCCC4)nn3c2)c1 | enzyme activity, Dundee kinase panel | 10 µM | – | remaining activity | 94% |
| CC(C)=CC1OC(C)(C)C2C=C3C(=O)C(Cl)=CC(O)C3C3C(O)C4OC4C(=O)C132 (centres unmarked) | cell-free assay, competition with immobilised ligand | 10 µM | – | remaining binding | 95% |
| NC(=O)[C@@H](O)C[C@H]1CCc2sc3ncnc(O[C@H]4CC[C@H](N5CCOCC5)CC4)c3c21 | enzyme activity, inhibitor | 10 µM | – | inhibition | 9% |
| Cc1cccc(O[C@H]2CCC[C@@H](C(C)CNCc3ccncc3)C2)c1 (relative stereo) | kinase activity, kinome panel screening | 10 µM | – | inhibition | -5% |
| Cc1cnc2nc1Nc1cccc(c1)COC/C=C/COCc1cc(ccc1OCCN1CCOCC1)N2 | cell-free assay | 0.1 µM | – | remaining signal | 83% |
| C=CC(=O)N1CCCC(n2c(=O)c3ncccc3n(Cc3ccc(Oc4ccccc4)cc3)c2=O)C1 (centres unmarked) | cell-free assay, competition with immobilised ligand | 1 µM | – | remaining binding | 75% |
| O=c1c(-c2ccc(Cl)c(CN3CCOCC3)c2)coc2cc(O)ccc12 | enzyme activity, inhibitor | 1 µM | – | remaining activity | 95% |
| C=CC(=O)Nc1cccc(-c2cnc3[nH]cc(C(=O)NC(C)(C)C)c3n2)c1 | kinase activity | 0.1 µM | – | inhibition | 78% and 77% |
| CNC(=O)C1CCN(c2cc(C)c(F)cc2NC(=O)c2ccc(-c3cc(O)ccc3C)c(C)c2)CC1 | binding, competition with immobilised ligand | 1 µM | – | remaining binding | 90% |
| COc1cc(-n2cc3cc(F)cc(C(N)=O)c3n2)cc(Cl)c1C1CC(O)(CCO)Cc2ccccc21 (centres unmarked) | enzyme activity, inhibitor | 10 µM | – | inhibition | 2.76% |
| Nc1nc(Nc2ccccc2)sc1C(=O)c1ccccc1 | enzyme activity, inhibitor | 10 µM | – | remaining activity | 45% |
| C=CC(=O)N1CCc2ccc(-n3c(=O)ccc4cnc5ccc(-c6cnn(C)c6)cc5c43)cc21 | KINOMEscan | 1 µM | relative to: DMSO control | remaining binding | 100% |
| COCC12C(=O)NC3C4(C(OC)CC1O)C1CC5(O)C(OC)C(O)C(OC(C)=O)(C1C5OC(=O)c1ccccc1)C3(O)C(OC)C24 (centres unmarked) | kinase activity, inhibitor, ProQinase kinase profiling | 25 µM | relative to: control | remaining activity | 97% and 119% |
| CN1CCN(Cc2ccc(-c3ccc(CO[C@H]4CCC[C@@H]4NC(=O)c4cc(-c5cnn(C)c5)cnc4N)cc3)cc2)CC1 | enzyme activity, inhibitor | 0.1 µM | – | inhibition | 0% |
| COc1cc(Nc2nc(C)cc(-c3cnn4nc(OC)ccc34)n2)cc(C(F)(F)F)c1 | binding, competition with immobilised ligand | 1 µM | – | remaining binding | 100% |
| C[C@H]1CN(C(=O)c2cn(-c3ccnc(N)n3)c3cc(C#CC4(O)CCCCC4)ccc23)CCN1 | enzyme activity, inhibitor, FRET | 1 µM | – | inhibition | -1% |
| Cc1ccc(-c2c(/C=C(\C#N)C(=O)NC(C)C)n(CCCO)c3ncnc(N)c23)cc1 | cell-free assay, competition with immobilised ligand | 1 µM | – | remaining binding | 79% |
| CNC(=O)C[C@H](Cc1ccc(C#N)cc1)NC(=O)c1cc(-c2ccc(CN[C@H](C)c3ccc(C)cc3)o2)ccc1Cl | enzyme activity, inhibitor | 1 µM | – | activity vs control | 114% |

A few entries again:
| Compound | assay | setting | how to read | quantity | result |
| --- | --- | --- | --- | --- | --- |
| NC(=O)[C@@H](O)C[C@H]1CCc2sc3ncnc(O[C@H]4CC[C@H](N5CCOCC5)CC4)c3c21 | enzyme activity, inhibitor | 10 µM | – | inhibition | 9% |
